Measurements pooled from the literature.
Every numbered part comes from another study and shows a few of its results, in no order.

Series 1 — technique: RNA Bind-n-Seq; molecule type: RNA; medium: in vitro; concentration: 365 nM; reference: no-protein control; reading: higher = stronger binding
Target: RNA binding protein fox-1 homolog 2, RRM domain, GST-SBP tag (RBFOX2, Homo sapiens, UniProt O43251-10, residues 100-194)
Setting: natural RNA segment, single round, ends assumed
All sequences stand within: GGGAGUUCUACAGUCCGACGAUC … UGGAAUUCUCGGGUGCCAA
Construct (chain): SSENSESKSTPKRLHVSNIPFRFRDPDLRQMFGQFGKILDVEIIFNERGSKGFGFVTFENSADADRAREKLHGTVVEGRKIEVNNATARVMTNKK
Sequence	RBNS enrichment (R)
GGGAGGGGUUGGUUUUUCACUGAACAGGGGAUAUGCCUAUGUCUUCAUCAGUGUUGAAACAUUCACCAUGUGCUGGACGUAGGUUUUCAAUAAACACAGAUUGGUACCAC	0.268
AAAGAAAGAACGCUUCAACCCCCUUCCCCAUUUAGAUUAUUUAUUAACAUAUUUCGAAAGUAAGGUUAGCUCUAUAAAUAAUUUAGAGAGGUGAGAGUAUUUAUUUUUGG	0.461
AAUACCAACCAGAAAUUGGCAUUUAUAAACCUGUUAAGAGACUUUAAGCAUGCUUCAAGAGGCAGUUGACCCACUGGAAUUUCUAUAAGGCUGGUACCCUUCCCAGAGUU	1.59
GGUAGCUAUCAGACAUGGACAGAAACUGACUUAGUGCUCACAAGCCCCUACACCUUCUGGGCUGAAGAUCACCCAGCUGUGUUCAGAAUUUUCUUACUGUGCUUAGGACU	0.339
ACUGUGGGUGAAAUGUUCUACACACCACACACUAGGCCAUUUUCAGAUCAGCAGUCACCCAUCGCUUAGCAUAGAAAUCCCAAAACCUCCAGCCCGGGAACACUAUAAGC	0.303
UCAGAGUUCUAAGGACCAGCAUUCUGGGGGCCAUUUUCUCUACAGGCAAAUGGAAUUGCUUUUCCAUAACAUCCAAAUUGUAAUGUGGUUGCUGCUGAAGGAGGAGGCAG	0.456
ACAGAGACAGAUUCCAAGACUGGAAACUUCAAUUACAUCCAGAGGCAGAGAAACCUUUCCUCGACCACUCUUUAUUGAGGUACCCUGGUCACACUGAUGGCAGGACACAC	0.25
AUAGCUUCUUAUUAAAAAUUUAAAAAAAGCGUUGAGGAGGAAUCCUUUGGUUAUUCAUACGGAAUUGAUGAUGGAAAAGCAACUGGUUGUCUUCUAAUUGUCUUUGUCUA	0.448
GUUGUGGAAAAUCUGGAUCAUUGACCUCUGUGCUUUCAUUCCUAGAGAUGUUUUAUAGUUACAUGAGCAAAAGCUGUUGCCCCAAAGUGAUGGCCCUGGAGGCGGGGCUG	0.571

Series 2 — technique: protein-binding microarray; molecule type: double-stranded DNA, one strand shown; medium: in vitro; concentration: 250 nM; setting: 60-bp whole probe; together with: salmon DNA 0.4 mg/ml; reference: random background probes; reading: higher = stronger binding; all sequences stand within: GCCTAGCAC … GTCTTGATTCGCTTGACGCTGCTG
Target: Interferon regulatory factor 5, full length, phosphomimetic (IRF5, Homo sapiens, UniProt Q13568-2, residues 1-514, K96S/S451D/S453D/S456D/S462D)
Sequence	log fluorescence
GCCGATATCGGGACTGGAGACGTGCTA	1.47 z-score
GACGGACTGGGTTTCGGGATGTGCTAG	2.79 z-score
TTAGATTTCAGTGTCGATTAGTGCTAG	1.94 z-score
TCAGCCAGCTCTTTCGTACTGTGCTAG	1.63 z-score
GTCGATATCGGGTTTCGAGACGTGCTA	5.08 z-score
AGGAAGACATCAAAGAGAGCGTGCTAG	-0.0511 z-score
CCAGACCCTGATCCATGCATGTGCTAG	-0.833 z-score
TTAGGTTTCGGGCTTCGGTTAGTGCTA	6.11 z-score
TTAGGTATCCTACTGCTCTAGTGCTAG	-0.132 z-score
TTAGGTCTCGTTCTCCTTTAGTGCTAG	0.416 z-score

Series 3 — technique: RNA Bind-n-Seq; molecule type: RNA; medium: in vitro; concentration: 200 nM; setting: whole 134-nt RNA, ends assumed; together with: 150 mM KCl; reference: input library; reading: higher = stronger binding
Target: Fragile X messenger ribonucleoprotein 1, C-terminal low-complexity region (Fmr1, Mus musculus, UniProt P35922)
All sequences stand within: GGGAGUUCUACAGUCCGACGAUC … UGGAAUUCUCGGGUGUCAAGG
Sequence	log2 enrichment
UAACUUUAGAGCAGGAUCUGAUGGAUAUGGCAGUGGACGUGGAUUUGGGGAUGGCUAUAAUGGGUAUGGAGGAGGACCUGGAGGUGGCAA	0.428
GCAGGAAGUAAAAACAAAUGGAAAUGCUUCGGAUAGUGGCAGGGGUGGGGGUUGCUAAGGAAAGGGUGGGUUGGGAGUGGGUAAAGAGUU	0.338
GUCCUGUGCUACACAUCGUAUGUACCGAAUCGGGGAAAGGGGUGGGGAAAAAAAGGGGAAAGUAUUAUGUUACGCCGUUCGGAUCUGCAC	0.333
UCCUGUGCUACACAUCGUAUGUACCGAAUCGGGGAAAAAAAGGGGAAAGGGGAAAGGGGAAAGUAUUAUGUUACGCCGUUCGGAUCUGCA	0.459
UGGGAGAUGGAUUUUGUUUAUUUUUUUAGCUCAUUUCCAGGGGUGGGAAUUUUUUUUUAAUAUGUGUCAUGAAUAAAGUUGUUUUUGAAA	-0.369
CACAGACAACACGCACCCACACAGACACAGAGGGAAGGGGUUGGGAUGGGGACAGGGUGCACAGCAGGGCGGGGUAGGACCCCAGCCCAU	1.37
UAACUUUAGAGGAGGAUCUGAUGGAUAUGGCAGUGGACGUGGAUUUGGGGAUGGCUAUAAUGGGUAUGGAGGAGGACCUGAAGGUGGCAA	0.134

Further values, each from its own experiment
Molecule	target	assay	test system	setting	scale	measurement	value
PhoQ, residues 284 288 289 292 302 303 AGCYAI	PhoP, residues 12 14 15 18 19 MHTVL (Escherichia coli, UniProt P23836)	Sort-seq, refers to: YFP reporter	E. coli	PhoQ-PhoP variant library, together with: 10 µM Mg2+	reference: high Mg2+ state, higher = stronger signaling	fold induction	12.2

Some of these lines once more (series 1):
Sequence	RBNS enrichment (R)
GGGAGGGGUUGGUUUUUCACUGAACAGGGGAUAUGCCUAUGUCUUCAUCAGUGUUGAAACAUUCACCAUGUGCUGGACGUAGGUUUUCAAUAAACACAGAUUGGUACCAC	0.268
ACAGAGACAGAUUCCAAGACUGGAAACUUCAAUUACAUCCAGAGGCAGAGAAACCUUUCCUCGACCACUCUUUAUUGAGGUACCCUGGUCACACUGAUGGCAGGACACAC	0.25
